Measured values gathered from unrelated publications.
Each line is one published result; not all experiments were run side by side.
INSR: Insulin receptor (INSR, Homo sapiens, UniProt P06213)
Sequence of UniProt P06213 (whole entry, looked up): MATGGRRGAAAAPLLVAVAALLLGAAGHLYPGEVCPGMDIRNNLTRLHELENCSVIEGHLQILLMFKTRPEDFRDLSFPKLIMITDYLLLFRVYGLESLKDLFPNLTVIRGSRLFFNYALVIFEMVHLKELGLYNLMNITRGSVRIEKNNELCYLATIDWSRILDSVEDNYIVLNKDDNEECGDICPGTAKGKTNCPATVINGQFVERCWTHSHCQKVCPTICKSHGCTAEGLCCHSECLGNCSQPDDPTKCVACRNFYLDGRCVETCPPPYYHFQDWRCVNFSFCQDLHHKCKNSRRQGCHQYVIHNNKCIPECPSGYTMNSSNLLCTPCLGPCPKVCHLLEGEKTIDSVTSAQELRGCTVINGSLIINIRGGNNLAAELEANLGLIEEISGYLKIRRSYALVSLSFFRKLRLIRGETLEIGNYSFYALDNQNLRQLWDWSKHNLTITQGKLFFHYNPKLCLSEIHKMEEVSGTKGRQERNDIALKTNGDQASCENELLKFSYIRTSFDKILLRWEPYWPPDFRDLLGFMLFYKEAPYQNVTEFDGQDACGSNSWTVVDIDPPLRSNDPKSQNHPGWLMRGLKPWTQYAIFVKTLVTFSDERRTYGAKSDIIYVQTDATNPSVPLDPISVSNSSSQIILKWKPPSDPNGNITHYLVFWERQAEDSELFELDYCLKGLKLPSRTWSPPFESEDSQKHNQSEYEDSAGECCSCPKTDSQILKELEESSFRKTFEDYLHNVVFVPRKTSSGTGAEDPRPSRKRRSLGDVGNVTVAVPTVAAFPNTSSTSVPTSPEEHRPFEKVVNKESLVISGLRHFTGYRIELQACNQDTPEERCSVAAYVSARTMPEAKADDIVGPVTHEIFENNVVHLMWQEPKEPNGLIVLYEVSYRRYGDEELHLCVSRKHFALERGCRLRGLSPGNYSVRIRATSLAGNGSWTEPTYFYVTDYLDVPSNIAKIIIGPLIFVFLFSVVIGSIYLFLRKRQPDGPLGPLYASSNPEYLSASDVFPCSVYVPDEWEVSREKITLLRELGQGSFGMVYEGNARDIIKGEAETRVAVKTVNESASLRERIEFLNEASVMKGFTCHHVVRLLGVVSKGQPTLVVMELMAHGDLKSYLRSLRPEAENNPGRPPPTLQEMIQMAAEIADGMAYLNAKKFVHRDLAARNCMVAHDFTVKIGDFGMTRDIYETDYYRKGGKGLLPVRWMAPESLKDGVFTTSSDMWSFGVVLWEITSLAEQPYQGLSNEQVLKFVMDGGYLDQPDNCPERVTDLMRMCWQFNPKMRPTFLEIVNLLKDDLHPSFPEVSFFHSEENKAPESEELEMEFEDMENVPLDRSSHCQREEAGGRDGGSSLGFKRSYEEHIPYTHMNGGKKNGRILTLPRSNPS

| SMILES | target | assay | setting | how to read | endpoint | result |
| --- | --- | --- | --- | --- | --- | --- |
| N[C@H](C(=O)N1CCCC1)C1CCN(c2nccc3c(-c4ncc(Cl)cc4Cl)cccc23)CC1 | INSR | kinase activity, inhibitor | 10 µM, together with: ATP 1 mM | – | inhibition | 12.2% |
| Cc1ccc2c(n1)c(-c1cccc(S(C)(=O)=O)c1)c(C)n2C/C(F)=C/CN | INSR | cell-free assay | 10 µM | – | inhibition | -11% |
| O=C(O)c1ccccc1/C=N/Nc1nc(-c2ccccc2Cl)cs1 | INSR | enzyme activity, inhibitor | 1 µM | – | inhibition | -1.03% |
| CCOC(=O)[C@@H]1Cc2c(cc([N+](=O)[O-])cc2[N+](=O)[O-])[C@H](O)[C@]12C(=O)Nc1ccc(Br)cc12 | INSR | binding, competition with immobilised ligand | 0.1 µM | – | remaining binding | 77% |
| COc1ccc(F)cc1S(=O)(=O)Nc1cnc2c(c1)C(=O)NCCO2 | INSR | enzyme activity, inhibitor | 10 µM | – | inhibition | 0% |
| O=C1NC(=O)c2c1c1cc(F)c[n+]3c1c1c2c2cc(O)ccc2[n]1[Ru-4]312([N]=C=S)[S+]3CC[S+]1CC[S+]2CC3 (stereo not shown) | Insulin receptor, activated (INSR, Homo sapiens, UniProt P06213) | enzyme activity | 100 nM, human enzyme, together with: 10 µM ATP | baseline: untreated | remaining activity | 27% |
| C[C@H](NCc1ccc(-c2ccc(C(F)(F)F)cc2)cc1)C(N)=O | INSR | cell-free assay, competition with immobilised ligand | 1 µM | – | inhibition | 28% |
| Nc1ccc(/C=C/C(=O)N2CCc3c(oc4c(-c5ccc(F)cc5)cc(-c5ccc(C(=O)N6CCC(F)(F)CC6)cn5)cc34)C2)cn1 | INSR | binding, competition with immobilised ligand | 1 µM | – | remaining binding | 77% |
| CC(C)[C@H]1NC(=O)C[C@H]2/C=C/CCSSC[C@@H](NC1=O)C(=O)N[C@H](Cc1cccc3ccccc13)C(=O)NCC(=O)O2 | INSR | enzyme activity, inhibitor | 10 µM | – | inhibition | -7% |
| CS(C)(=O)=Nc1ccc(-c2ccc(-c3nc4cc(O[C@@H]5CO[C@H]6[C@@H]5OC[C@H]6O)[nH]c4cc3F)cc2)cc1 | Insulin receptor, phosphorylated (INSR, Homo sapiens, UniProt P06213) | enzyme activity, inhibitor | 10 µM | – | inhibition | 9% |
| CCn1nc(Cl)c2c1-c1cnc(N)c(c1)O[C@H](C)c1cc(F)ccc1-c1nn(C)cc1C2 | INSR | kinase activity, inhibitor | – | baseline: IC50 INSR over IC50 ALK | selectivity ratio | 67 fold |
| CN(/N=C/c1ccccc1C(=O)O)c1nc(-c2ccccc2Cl)cs1 | INSR | enzyme activity, inhibitor | 1 µM | – | inhibition | -12.1% |
| C[C@@H]1COCCN1c1nc(NCc2cccnc2C(F)(F)F)c2cccnc2n1 | INSR | binding | CEREP panel | – | IC50 | > 100 µM |

Excerpt of the above:
| SMILES | target | assay | setting | how to read | endpoint | result |
| --- | --- | --- | --- | --- | --- | --- |
| CS(C)(=O)=Nc1ccc(-c2ccc(-c3nc4cc(O[C@@H]5CO[C@H]6[C@@H]5OC[C@H]6O)[nH]c4cc3F)cc2)cc1 | Insulin receptor, phosphorylated (INSR, Homo sapiens, UniProt P06213) | enzyme activity, inhibitor | 10 µM | – | inhibition | 9% |
